Measurements pooled from the literature.
Protocols differ between the studies behind these lines. “And” joins repeats or separate records; there may be more than shown. ± marks the error that the study gave.

SMILES	target or system	test	system	setting	scale	quantity	result
CN[C@H](CC(C)C)C(=O)N[C@H]1C(=O)N[C@@H](CC(N)=O)C(=O)N[C@H]2C(=O)N[C@H]3C(=O)N[C@H](C(=O)N[C@H](C(=O)O)c4cc(O)cc(O)c4-c4cc3ccc4O)[C@H](O)c3ccc(c(Cl)c3)Oc3cc2cc(c3O[C@@H]2O[C@H](CO)[C@@H](O)[C@H](O)[C@H]2O[C@H]2C[C@](C)(N)[C@H](O)[C@H](C)O2)Oc2ccc(cc2Cl)[C@H]1O	Staphylococcus epidermidis	–	9397, female ICR mice, peritonitis, lung	dose not given	–	bacterial load	5.87 log CFU and 6.14 log CFU and 5.07 log CFU and 6.19 log CFU and 5.32 log CFU and 7.47 log CFU
Cc1cc(OC(C)C)ccc1C(=O)C(C)(C)NC(=O)c1sccc1C	Botrytis cinerea	appressorium formation	B05.10	3 µg/mL	–	inhibition	99.6 ± 0.8%
COC(=O)[C@@H](CCSC)NCc1cc2ccccc2nc1SC	Pseudomonas aeruginosa	–	–	2 µg/mL, with: pentamidine 100 µM	baseline: control	growth	98.3%
CC(C)n1ncc2c(C(=O)NCC3(C)CNC3)cc(C3CC3)nc21	Enterovirus D68	time-of-addition	RD, US/MO/14-18947	3 µM, 5 to 5 h post infection	–	virus titre	1400 PFU/mL and 2000 PFU/mL
CC(=Nc1ccc(N=Cc2cc[nH]c2)cc1)N(C)C	Necator americanus	–	infected hamsters	oral, 50 mg/kg single	baseline: untreated	worm burden reduction	95 ± 5%
COC(=O)[C@H](Cc1c[nH]c2ccccc12)NCc1cc2ccccc2nc1SC	Pseudomonas aeruginosa	–	–	32 µg/mL, without pentamidine	baseline: control	growth	96.3%
O=C(CCCCCCC(=O)Nc1ccc(I)cc1)NO	OCI-Ly1	–	–	1 µM, 120 h	–	viability	8.12%
C/C(=N/c1ccc(/N=C/c2ccc(/C=N/c3ccc(/N=C(/C)N(C)C)cc3)cc2)cc1)N(C)C	Necator americanus	–	infected hamsters	oral, 50 mg/kg single dose, 49 days after infection	–	worm burden reduction	89.4%
O=C(NO)c1cccc(C(=O)NCCc2ccccc2)c1	OCI-Ly1	–	–	0.5 µM, 120 h	–	viability	172%
Nc1nc(-c2ccccc2)nc2[nH]nc(Nc3ccc(C(F)(F)F)cc3)c12	coxsackievirus B3	–	31-1-93, NMRI mice, CVB3 chronic myocarditis	oral, 100 mg/kg twice daily, day 24, dosed days 3 to 10, score scale 0 to 7	direction not given	clinical score	0.3

Repeated from above:
SMILES	target or system	test	system	setting	scale	quantity	result
Nc1nc(-c2ccccc2)nc2[nH]nc(Nc3ccc(C(F)(F)F)cc3)c12	coxsackievirus B3	–	31-1-93, NMRI mice, CVB3 chronic myocarditis	oral, 100 mg/kg twice daily, day 24, dosed days 3 to 10, score scale 0 to 7	direction not given	clinical score	0.3
